Experimental data pooled from the literature.
Compare with care: the assays were run in different laboratories. Numbers after ± are the reported error.
TPR: Trypanothione reductase (TPR, Trypanosoma brucei brucei, UniProt P39051)
Sequence of UniProt P39051 (whole entry, looked up): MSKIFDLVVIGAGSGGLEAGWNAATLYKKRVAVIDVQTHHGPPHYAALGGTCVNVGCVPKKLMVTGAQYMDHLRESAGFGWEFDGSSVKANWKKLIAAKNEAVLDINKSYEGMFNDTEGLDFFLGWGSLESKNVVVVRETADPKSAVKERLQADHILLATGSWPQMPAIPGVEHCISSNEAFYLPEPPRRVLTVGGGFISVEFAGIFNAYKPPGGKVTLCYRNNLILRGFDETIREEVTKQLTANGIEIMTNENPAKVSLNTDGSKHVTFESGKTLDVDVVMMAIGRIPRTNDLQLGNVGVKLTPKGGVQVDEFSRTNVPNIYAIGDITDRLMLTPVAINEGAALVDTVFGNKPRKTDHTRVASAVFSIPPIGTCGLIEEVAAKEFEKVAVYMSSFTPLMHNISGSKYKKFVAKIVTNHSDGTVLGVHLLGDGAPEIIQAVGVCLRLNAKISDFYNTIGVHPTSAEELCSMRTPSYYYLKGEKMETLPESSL
Sequence of UniProt P41586 (whole entry, looked up): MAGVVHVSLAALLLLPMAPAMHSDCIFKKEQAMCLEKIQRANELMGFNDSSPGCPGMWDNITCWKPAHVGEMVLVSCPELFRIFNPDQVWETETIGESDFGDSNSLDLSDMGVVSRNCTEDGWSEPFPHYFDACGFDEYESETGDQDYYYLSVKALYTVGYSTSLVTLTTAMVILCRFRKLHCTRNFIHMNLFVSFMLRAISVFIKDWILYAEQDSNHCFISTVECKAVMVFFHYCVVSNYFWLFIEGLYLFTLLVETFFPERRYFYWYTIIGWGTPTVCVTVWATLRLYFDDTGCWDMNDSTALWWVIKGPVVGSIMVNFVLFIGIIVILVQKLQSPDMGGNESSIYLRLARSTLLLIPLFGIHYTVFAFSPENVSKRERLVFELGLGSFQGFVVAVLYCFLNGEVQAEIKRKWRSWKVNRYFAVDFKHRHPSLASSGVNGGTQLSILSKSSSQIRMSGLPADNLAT
Sequence of UniProt Q9NUW8 (whole entry, looked up): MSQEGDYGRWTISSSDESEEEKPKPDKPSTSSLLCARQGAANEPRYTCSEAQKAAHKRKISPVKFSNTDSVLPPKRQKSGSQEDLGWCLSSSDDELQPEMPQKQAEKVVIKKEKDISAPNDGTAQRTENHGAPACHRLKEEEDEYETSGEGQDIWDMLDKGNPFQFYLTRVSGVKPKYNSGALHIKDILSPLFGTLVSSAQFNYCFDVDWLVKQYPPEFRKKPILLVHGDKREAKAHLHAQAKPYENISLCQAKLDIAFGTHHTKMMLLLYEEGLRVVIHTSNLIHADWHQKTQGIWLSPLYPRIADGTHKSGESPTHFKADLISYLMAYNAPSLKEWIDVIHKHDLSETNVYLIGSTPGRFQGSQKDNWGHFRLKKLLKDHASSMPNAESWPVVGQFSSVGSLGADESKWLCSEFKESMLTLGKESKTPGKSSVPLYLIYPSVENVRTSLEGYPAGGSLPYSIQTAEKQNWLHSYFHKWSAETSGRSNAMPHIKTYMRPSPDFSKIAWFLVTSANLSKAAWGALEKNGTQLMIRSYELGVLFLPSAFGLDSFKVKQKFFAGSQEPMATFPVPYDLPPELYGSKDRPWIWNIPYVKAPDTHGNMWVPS
Sequence of UniProt P54764 (whole entry, looked up): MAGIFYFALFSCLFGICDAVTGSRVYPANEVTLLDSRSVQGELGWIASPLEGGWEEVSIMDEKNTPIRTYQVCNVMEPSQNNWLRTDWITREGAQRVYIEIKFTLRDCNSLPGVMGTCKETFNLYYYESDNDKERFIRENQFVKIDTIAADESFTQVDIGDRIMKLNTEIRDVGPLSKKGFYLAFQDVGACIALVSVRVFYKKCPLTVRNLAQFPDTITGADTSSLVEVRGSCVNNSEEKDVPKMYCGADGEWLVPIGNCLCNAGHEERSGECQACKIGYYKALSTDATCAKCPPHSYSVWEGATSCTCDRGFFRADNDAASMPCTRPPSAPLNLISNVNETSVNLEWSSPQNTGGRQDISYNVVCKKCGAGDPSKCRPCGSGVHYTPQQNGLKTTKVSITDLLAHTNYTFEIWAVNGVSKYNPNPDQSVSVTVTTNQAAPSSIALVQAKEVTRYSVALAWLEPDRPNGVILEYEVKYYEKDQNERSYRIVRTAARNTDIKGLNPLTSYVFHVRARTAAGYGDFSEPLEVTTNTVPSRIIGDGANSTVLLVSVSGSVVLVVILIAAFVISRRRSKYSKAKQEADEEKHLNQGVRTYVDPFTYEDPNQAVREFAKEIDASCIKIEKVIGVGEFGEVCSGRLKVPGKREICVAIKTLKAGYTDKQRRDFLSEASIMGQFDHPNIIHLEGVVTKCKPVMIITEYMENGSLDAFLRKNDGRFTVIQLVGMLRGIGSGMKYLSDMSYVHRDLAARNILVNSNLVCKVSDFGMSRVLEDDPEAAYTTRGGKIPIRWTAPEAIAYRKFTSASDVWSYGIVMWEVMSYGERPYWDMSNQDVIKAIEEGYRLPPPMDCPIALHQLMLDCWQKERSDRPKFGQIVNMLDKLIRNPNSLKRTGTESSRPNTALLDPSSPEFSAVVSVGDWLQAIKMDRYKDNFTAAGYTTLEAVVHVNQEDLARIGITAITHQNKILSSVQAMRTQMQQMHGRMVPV
Sequence of UniProt P23219 (whole entry, looked up): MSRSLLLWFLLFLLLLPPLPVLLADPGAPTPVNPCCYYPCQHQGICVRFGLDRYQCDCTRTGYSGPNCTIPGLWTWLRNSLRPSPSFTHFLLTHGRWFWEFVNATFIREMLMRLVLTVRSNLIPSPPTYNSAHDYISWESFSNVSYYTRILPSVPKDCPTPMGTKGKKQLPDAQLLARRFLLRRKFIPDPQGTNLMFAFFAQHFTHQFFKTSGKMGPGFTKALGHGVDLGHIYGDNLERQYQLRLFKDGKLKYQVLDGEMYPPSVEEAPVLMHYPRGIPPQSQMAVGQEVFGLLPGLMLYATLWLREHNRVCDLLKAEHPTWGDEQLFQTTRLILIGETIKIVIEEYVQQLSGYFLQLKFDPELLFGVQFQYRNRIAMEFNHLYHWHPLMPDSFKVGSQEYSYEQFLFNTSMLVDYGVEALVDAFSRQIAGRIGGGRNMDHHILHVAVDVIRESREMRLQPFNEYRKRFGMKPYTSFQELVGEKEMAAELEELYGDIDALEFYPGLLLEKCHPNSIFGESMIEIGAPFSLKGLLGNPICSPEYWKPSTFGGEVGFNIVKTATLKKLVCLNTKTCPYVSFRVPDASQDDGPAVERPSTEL
Sequence of UniProt A8MYU2 (whole entry, looked up): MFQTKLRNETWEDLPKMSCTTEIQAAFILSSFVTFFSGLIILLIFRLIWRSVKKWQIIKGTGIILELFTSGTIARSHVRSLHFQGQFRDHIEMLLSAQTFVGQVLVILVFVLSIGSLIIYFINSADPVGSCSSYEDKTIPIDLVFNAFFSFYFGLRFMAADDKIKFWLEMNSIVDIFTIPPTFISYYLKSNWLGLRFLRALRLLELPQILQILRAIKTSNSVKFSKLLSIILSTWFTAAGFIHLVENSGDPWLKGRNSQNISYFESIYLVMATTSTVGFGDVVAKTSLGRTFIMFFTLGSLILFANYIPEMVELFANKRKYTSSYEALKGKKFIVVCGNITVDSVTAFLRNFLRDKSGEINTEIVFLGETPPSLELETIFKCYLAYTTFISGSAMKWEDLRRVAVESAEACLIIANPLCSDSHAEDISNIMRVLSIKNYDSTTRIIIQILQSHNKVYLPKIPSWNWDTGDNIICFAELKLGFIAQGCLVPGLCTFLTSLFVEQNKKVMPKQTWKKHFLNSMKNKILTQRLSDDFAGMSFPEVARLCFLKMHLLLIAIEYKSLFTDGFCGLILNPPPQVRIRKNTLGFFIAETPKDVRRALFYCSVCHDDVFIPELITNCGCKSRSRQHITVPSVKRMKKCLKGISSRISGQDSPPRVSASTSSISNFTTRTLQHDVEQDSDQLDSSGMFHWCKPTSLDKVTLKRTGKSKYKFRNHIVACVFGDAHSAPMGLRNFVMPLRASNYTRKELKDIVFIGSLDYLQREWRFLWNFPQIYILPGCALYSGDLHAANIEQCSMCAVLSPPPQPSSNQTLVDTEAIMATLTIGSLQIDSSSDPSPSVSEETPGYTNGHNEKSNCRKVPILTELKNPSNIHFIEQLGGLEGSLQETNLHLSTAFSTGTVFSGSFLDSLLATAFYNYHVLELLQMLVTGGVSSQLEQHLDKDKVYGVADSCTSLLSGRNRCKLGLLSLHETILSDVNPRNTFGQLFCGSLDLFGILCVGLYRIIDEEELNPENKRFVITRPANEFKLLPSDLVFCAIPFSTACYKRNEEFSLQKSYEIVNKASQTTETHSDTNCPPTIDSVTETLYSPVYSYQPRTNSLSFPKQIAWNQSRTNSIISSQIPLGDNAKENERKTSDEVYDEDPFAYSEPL
Sequence of UniProt Q99436 (whole entry, looked up): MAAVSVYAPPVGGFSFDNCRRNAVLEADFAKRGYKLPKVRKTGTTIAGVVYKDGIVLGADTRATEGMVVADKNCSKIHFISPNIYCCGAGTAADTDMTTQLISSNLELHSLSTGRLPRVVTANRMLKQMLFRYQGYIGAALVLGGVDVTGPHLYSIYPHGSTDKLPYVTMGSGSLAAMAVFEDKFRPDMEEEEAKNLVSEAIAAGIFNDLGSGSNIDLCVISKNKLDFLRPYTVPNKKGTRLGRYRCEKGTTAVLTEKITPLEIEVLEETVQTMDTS
Sequence of UniProt Q8DPL8 (whole entry, looked up): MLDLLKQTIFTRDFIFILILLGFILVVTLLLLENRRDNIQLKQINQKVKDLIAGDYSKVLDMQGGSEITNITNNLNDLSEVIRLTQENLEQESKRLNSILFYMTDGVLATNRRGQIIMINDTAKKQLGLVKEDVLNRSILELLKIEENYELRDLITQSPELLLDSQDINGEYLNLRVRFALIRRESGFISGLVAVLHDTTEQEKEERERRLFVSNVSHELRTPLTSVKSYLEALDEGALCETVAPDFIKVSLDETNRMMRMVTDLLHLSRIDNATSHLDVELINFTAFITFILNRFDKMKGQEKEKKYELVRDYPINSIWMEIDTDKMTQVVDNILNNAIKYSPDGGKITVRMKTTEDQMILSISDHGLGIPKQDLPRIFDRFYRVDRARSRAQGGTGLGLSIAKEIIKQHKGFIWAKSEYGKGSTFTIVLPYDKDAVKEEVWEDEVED

SMILES | target | assay | test system | conditions | IC50
CC(=O)NCCN(CC(=O)NCCN(CC(=O)NCCN(CC(=O)NCCC(N)=O)C(=O)C[C@@H](N)Cc1ccccc1)C(=O)C[C@@H](N)CCCNC(=N)N)C(=O)C[C@@H](N)Cc1ccccc1 | HIV-1 TAR RNA | Tat/TAR complex displacement, FRET |  | room temperature, added: 10 nM Tat/TAR complex | 8.7 ± 0.4 µM
C=CC(=O)Nc1ccc(-c2c(-c3ccc(OC)cc3)c3c(N)ncnc3n2C)cc1 | Fibroblast growth factor receptor 2 (FGFR2, Homo sapiens, UniProt P21802) | Caliper mobility shift |  | 30 min preincubation, added: 100 µM ATP | 0.01 µM
Cc1ccc(C(=O)N2CCN(c3ccc(F)cc3)CC2)cc1[N+](=O)[O-] | SEC14 (Saccharomyces cerevisiae, UniProt P24280) | enzyme activity, inhibitor, radiometric |  |  | 11.1 µM
CC(=O)NCCN(CCC(=O)NCCN(CCC(=O)NCCN(CCC(=O)NCCC(N)=O)C(=O)[C@@H](N)CCCCN)C(=O)[C@@H](N)Cc1ccccc1)C(=O)[C@@H](N)Cc1ccccc1 | HIV-1 TAR RNA | Tat/TAR complex displacement, FRET |  | room temperature, added: 10 nM Tat/TAR complex | 122.8 ± 0.5 µM
CC[C@H](C)[C@H](NC(=O)CNC(=O)C1CCN(C(=O)[C@H](CO)NC(=O)[C@@H](N)Cc2c[nH]cn2)CC1)C(=O)N[C@@H](Cc1ccccc1)C(=O)N[C@H](C(=O)N[C@@H](CC(=O)O)C(=O)N[C@@H](CO)C(=O)N[C@@H](Cc1ccc(O)cc1)C(=O)N[C@@H](CO)C(=O)N[C@@H](CCCNC(=N)N)C(=O)N[C@@H](Cc1ccc(O)cc1)C(=O)N[C@@H](CCCNC(=N)N)C(=O)N[C@@H](CCCCN)C(=O)NC(C)(C)C(=O)N[C@@H](C)C(=O)N[C@@H](C)C(=O)N[C@H](C(=O)N[C@@H](CCCCN)C(=O)N[C@@H](CCCCN)C(=O)N[C@@H](Cc1ccc(O)cc1)C(=O)N[C@@H](CC(C)C)C(=O)N[C@@H](C)C(=O)N[C@@H](C)C(=O)N[C@H](C(=O)N[C@@H](CC(C)C)C(=O)NC(C)(C)C(=O)N[C@@H](CCCCN)C(=O)N[C@@H](CCCNC(=N)N)C(=O)N[C@@H](Cc1ccc(O)cc1)C(=O)N[C@@H](CCCCN)C(=O)N[C@@H](CCC(N)=O)C(=O)N[C@@H](CCCCN)C(=O)N[C@H](C(=O)N[C@@H](CCCCN)C(=O)N[C@@H](CC(N)=O)C(=O)N[C@H](CCCCN)C(N)=O)C(C)C)C(C)C)C(C)C)[C@@H](C)O | Pituitary adenylate cyclase-activating polypeptide type I receptor (ADCYAP1R1, Homo sapiens, UniProt P41586) | ligand displacement, radioligand |  |  | 0.851 µM
C=C(NC(=O)C(=C)NC(=O)c1csc(C2=NC3c4csc(n4)C4NC(=O)c5csc(n5)C(C(C)(O)C(C)O)NC(=O)C5CSC(=N5)C(=CC)NC(=O)C(C(C)C)NC(=O)c5csc(n5)C3(CC2)NC(=O)C(C)NC(=O)C(=C)NC(=O)C(C)NC(=O)C(C(C)CC)NC2C=Cc3c(C(C)O)cc(nc3C2O)C(=O)OC4C)n1)C(N)=O (centres unmarked) | Proteasome subunit beta type-7, in 20S proteasome (PSMB7, Homo sapiens, UniProt Q99436) | trypsin-like activity, inhibitor | purified 20S proteasome | 15 min preincubation, 37 °C, added: Boc-Leu-Arg-Arg-AMC substrate | 1.33 ± 0.27 µM
CN1CCN(C(=O)c2ccc(-c3ccc4c(c3)/C(=C/c3ccc(N5CCNCC5)cc3)C(=O)N4)cc2)CC1 | Fibroblast growth factor receptor 4 (FGFR4, Homo sapiens, UniProt P22455) | enzyme activity, inhibitor |  |  | 8.48 µM
c1ccc2[nH]c(-c3n[nH]c4ccccc34)nc2c1 | 3-phosphoinositide-dependent protein kinase 1 (PDPK1, Homo sapiens, UniProt O15530) | enzyme activity, inhibitor |  |  | 3 µM
Cc1ccc(-c2cc(C(=O)NCCCn3ccnc3)c3cc(Br)ccc3n2)o1 | TPR | inhibitor, DTNB-coupled colourimetric |  | added: substrate at Km | 5.1 µM
COc1cc(/C=C2/SC(=S)N(CC(=O)Nc3cccc(C(=O)O)c3)C2=O)cc(OC)c1OC | ADP-ribosyl cyclase/cyclic ADP-ribose hydrolase 1 (CD38, Homo sapiens, UniProt P28907) | enzyme activity, inhibitor, fluorescence |  |  | 17.1 µM
CC(C)c1ccc(Cn2ccc([C@H](C)[C@](O)(Cn3cnnn3)c3ccc(F)cc3F)n2)cc1 | Cytochrome P450 2C19 (CYP2C19, Homo sapiens, UniProt P33261) | enzyme activity, inhibitor | human, liver microsomes |  | 5.33 µM
N#C/C(=C\c1cccc(-c2ccncc2)c1)C(N)=O | Ribosomal protein S6 kinase alpha-3, C-terminal kinase domain (RPS6KA3, Homo sapiens, UniProt P51812, T493M) | kinase activity, inhibitor |  | added: 0.1 mM ATP | 0.43 µM
CC(C)C[C@H](NC(=O)[C@H](CC(N)=O)NC(=O)[C@H](CCCNC(=N)N)NC(=O)[C@@H](NC(=O)[C@@H](NC(=O)[C@@H]1CCCN1C(=O)[C@H](CCCNC(=N)N)NC(=O)[C@H](CCCCN)NC(=O)[C@@H]1CCCN1)[C@@H](C)O)[C@@H](C)O)C(=O)N[C@@H](Cc1ccccc1)C(=O)NCCCCCC(=O)N[C@@H](CCCNC(=N)N)C(=O)N[C@@H](CCCNC(=N)N)C(=O)N[C@@H](CCCNC(=N)N)C(=O)N[C@@H](CCC(N)=O)C(=O)N[C@@H](CCCNC(=N)N)C(=O)N[C@@H](CCCNC(=N)N)C(=O)N[C@@H](CCCCN)C(=O)N[C@@H](CCCCN)C(=O)N[C@@H](CCCNC(=N)N)C(=O)NCC(N)=O | Mitogen-activated protein kinase 14 (Mapk14, Mus musculus, UniProt P47811) | enzyme activity, inhibitor, radiometric |  | pH 7.5 | 447 µM
CC(C)n1cnc(C[C@H](NC(=O)c2cnccn2)C(=O)N2CCC[C@H]2C(N)=O)c1 | Thyrotropin-releasing hormone receptor (Mus musculus, UniProt P21761) | ligand displacement, radioligand |  |  | > 50 µM
CC1=C2C(=O)C3CC[C@@H](C)C2(CC1)C3(C)C (some centres unmarked) | Dipeptidyl peptidase 4 (DPP4, Sus scrofa, UniProt P22411) | enzyme activity, inhibitor, absorbance |  |  | > 229 µM
NC(=O)Nc1nc2cc(Br)ccc2[nH]c1=O | Sensor histidine protein kinase/phosphatase WalK (walK, Streptococcus pneumoniae, UniProt Q8DPL8) | enzyme activity, ATP-competitive inhibitor |  |  | 171 µM
O=P(O)(O)OC[C@H]1O[C@@](O)(C(F)(F)F)[C@H](O)[C@@H](O)[C@@H]1O | pgmB (Lactococcus lactis, UniProt P71447) | enzyme activity, inhibitor |  | pH 7.2, 25 °C, added: beta-glucose 1-phosphate 10 µM | 621 ± 82 µM
O=C1Nc2ccc(Cl)cc2C1=Cc1ccc(-c2cccc(C(=O)NCC3CCNCC3)c2)o1 (mixture of isomers) | Serine/threonine-protein kinase pim-1 (PIM1, Homo sapiens, UniProt P11309) | enzyme activity, inhibitor |  |  | 0.001 µM
Cc1ccc(-c2cc(C(=O)Nc3cccnc3)c3cc(Br)ccc3n2)o1 | TPR | inhibitor, DTNB-coupled colourimetric |  | added: substrate at Km | 7.2 µM
COc1ccc(SCC2CCN(C(=O)Cc3ccc(S(=O)(=O)C(C)C)cc3)CC2)cc1 | KCNU1 (Homo sapiens, UniProt A8MYU2) | ion current, inhibitor, patch clamp |  |  | 1.29 µM
CCOC(=O)C(CS)N1C(=O)c2ccc(N(C)C)cc2C1=O (centres unmarked) | Metallo-beta-lactamase type 2 (Serratia marcescens, UniProt P52699) | enzyme activity, inhibitor |  | pH 7.0, added: chromacef 25 µM | 0.026 ± 0.003 µM
CNC(=O)C1CCN(c2cc(C)ccc2NC(=O)c2ccc(-c3cc(O)ccc3C)c(C)c2)CC1 | Ephrin type-A receptor 4 (EPHA4, Homo sapiens, UniProt P54764) | target engagement in cells, BRET |  |  | 0.01 µM
Cc1cc(=O)oc2cc3c(c(C)c12)C(=O)c1c(O)cccc1C3=O | mushroom tyrosinase | enzyme activity |  | added: L-DOPA | > 100 µg/mL
O=C(O)c1ccc(Nc2c(-c3ccc(CON=Cc4ccc(-c5ccccn5)cc4)cc3)nc3cc(-c4ccccc4)ccn23)cc1 | Tyrosyl-DNA phosphodiesterase 1 (TDP1, Homo sapiens, UniProt Q9NUW8) | enzyme activity, inhibitor, HPLC |  |  | 73 µM
COc1cccc(/C=C/C(=O)c2ccc(O)cc2C)c1OC | Seed linoleate 13S-lipoxygenase-1 (Glycine max, UniProt P08170) | enzyme activity, inhibitor, absorbance |  |  | 53.8 µM
COc1cc(-c2nc3ccc(C(=O)NCCCN4CCN(c5ccccc5)C(=O)C4)cc3n2C2CCC2)cc(OC)c1OC | Activin receptor type-1 (ACVR1, Homo sapiens, UniProt Q04771) | target engagement in cells, BRET |  |  | 1.82 µM
CNC(=O)C1CCN(c2ccccc2NC(=O)c2ccc(-c3ccccc3C)c(C)c2)CC1 | Ephrin type-B receptor 2 (EPHB2, Homo sapiens, UniProt P29323) | target engagement in cells, BRET |  |  | 13.5 µM
CCN(c1nc(NCC(=O)O)nc(N2CCN(c3ccccc3C#N)CC2)n1)C1CCCCC1 | Slit homolog 2 protein, with SLIT2 (SLIT2, Homo sapiens, UniProt O94813) | inhibitor, TR-FRET |  |  | 225 µM
Brc1ccc(NCc2cn(-c3ccccc3)nc2-c2ccc(OCc3ccccc3)cc2)cc1 | Prostaglandin G/H synthase 1 (PTGS1, Homo sapiens, UniProt P23219) | enzyme activity, inhibitor, absorbance |  |  | 125 µM

For quick reference, copied from above:
SMILES | target | assay | test system | conditions | IC50
C=CC(=O)Nc1ccc(-c2c(-c3ccc(OC)cc3)c3c(N)ncnc3n2C)cc1 | Fibroblast growth factor receptor 2 (FGFR2, Homo sapiens, UniProt P21802) | Caliper mobility shift |  | 30 min preincubation, added: 100 µM ATP | 0.01 µM
Cc1ccc(-c2cc(C(=O)NCCCn3ccnc3)c3cc(Br)ccc3n2)o1 | TPR | inhibitor, DTNB-coupled colourimetric |  | added: substrate at Km | 5.1 µM
